Published values collected from several papers.
Parts stem from different laboratories: compare values within a part only. Substitutions count along the parent as printed.

Study 1
Target: CCNF, cyclin fold, Cln2 fusion (human)
Method: yeast growth competition, sequencing
Medium: yeast
Setting: strong parent motif
Relative to: not given
Direction: higher = stronger binding
Parent: RB1 docking peptide (human); PKPLKKLRFDIEG; partner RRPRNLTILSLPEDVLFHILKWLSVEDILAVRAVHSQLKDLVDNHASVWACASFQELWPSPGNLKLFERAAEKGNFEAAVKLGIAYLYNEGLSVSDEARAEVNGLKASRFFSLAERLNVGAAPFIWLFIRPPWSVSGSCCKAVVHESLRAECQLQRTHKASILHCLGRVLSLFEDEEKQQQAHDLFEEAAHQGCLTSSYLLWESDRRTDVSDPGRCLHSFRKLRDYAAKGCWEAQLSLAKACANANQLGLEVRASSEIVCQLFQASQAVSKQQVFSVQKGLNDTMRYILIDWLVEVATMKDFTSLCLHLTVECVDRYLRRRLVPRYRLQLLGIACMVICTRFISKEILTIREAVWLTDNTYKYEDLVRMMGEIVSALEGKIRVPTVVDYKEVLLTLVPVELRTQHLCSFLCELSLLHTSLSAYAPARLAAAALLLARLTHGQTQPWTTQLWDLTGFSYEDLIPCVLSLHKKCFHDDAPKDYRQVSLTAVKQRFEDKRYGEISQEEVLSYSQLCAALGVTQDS
Change	normalised enrichment score
PKPLKKLRFDPEG [I11P]	1.3
PKPLKKLRFPIEG [D10P]	1.16
PHPLKKLRFDIEG [K2H]	0.52
PKFLKKLRFDIEG [P3F]	1.68
PKPLKKLRFIIEG [D10I]	0.672
PKPLKKLMFDIEG [R8M]	1.09
PKPLKKLRFDIMG [E12M]	1.37
PKPLCKLRFDIEG [K5C]	1.05
KKPLKKLRFDIEG [P1K]	1.81
PKPLKKLRFYIEG [D10Y]	2.4
PWPLKKLRFDIEG [K2W]	1.92
PKPLKKLRFDIEL [G13L]	0.584
PKPLKKARFDIEG [L7A]	0.623
PKYLKKLRFDIEG [P3Y]	1.14
PKKLKKLRFDIEG [P3K]	0.897
SKPLKKLRFDIEG [P1S]	0.938
PKPLKKLRADIEG [F9A]	1.76
PKPLKKLRFTIEG [D10T]	1.03
PKPLKKLRRDIEG [F9R]	0.449
PKPLKVLRFDIEG [K6V]	1.37
PTPLKKLRFDIEG [K2T]	0.591
PKDLKKLRFDIEG [P3D]	0.848
PKPLKKLGFDIEG [R8G]	0.563
PKPLKTLRFDIEG [K6T]	1.55
PKPLLKLRFDIEG [K5L]	0.591

Study 2
Target: ABI1, truncated, D143A, DHFR fusion (Arabidopsis thaliana)
Method: DHFR PCA, deep sequencing
Medium: yeast
Setting: methotrexate growth selection, single substitutions
Added: (+)-ABA 17 µM
Relative to: wild-type fitted maximum
Direction: higher = stronger binding
Parent: PYL1, truncated, DHFR fusion (Arabidopsis thaliana); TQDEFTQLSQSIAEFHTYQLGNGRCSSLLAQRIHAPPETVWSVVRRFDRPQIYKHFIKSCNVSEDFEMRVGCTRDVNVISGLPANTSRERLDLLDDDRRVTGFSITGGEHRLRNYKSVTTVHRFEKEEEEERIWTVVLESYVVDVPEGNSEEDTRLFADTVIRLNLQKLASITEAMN
Change	relative binding score
F157A	-5.51%
E130W	58%
R99L	96.1%
M68C	78.7%
N177F	98.5%
V44A	39.3%
A35C	65.6%
V78K	-2.84%
F103I	11.6%
V161T	14.5%
V76K	-21.8%
N149Q	30.9%
A84D	2.98%
S27A	62.8%
V100E	-13.6%
R98L	72.9%
A158P	-15.5%

Study 3
Target: BATF, bZIP domain (human)
Method: DHFR protein complementation
Medium: yeast
Setting: single substitutions, most at no-binding floor
Relative to: wild-type JUN-FOS pair
Direction: higher = stronger binding
Parent: JUN, bZIP domain (human); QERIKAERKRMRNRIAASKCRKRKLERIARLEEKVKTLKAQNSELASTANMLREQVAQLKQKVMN; partner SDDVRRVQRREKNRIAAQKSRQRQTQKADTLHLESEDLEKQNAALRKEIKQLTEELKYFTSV
Change	binding fitness
A49T	-0.316 natural log
Q41T	-0.0184 natural log
M51L	0.0407 natural log
L31N	-0.164 natural log
A57G	-0.0347 natural log
K34E	-0.161 natural log
E32S	-0.0889 natural log
I28M	0.00882 natural log
R30I	0.017 natural log
A29H	-0.0171 natural log
L38I	-0.588 natural log
Q55W	-0.366 natural log
S43V	-0.0442 natural log
A46M	0.0474 natural log
A29G	-0.0821 natural log
L52Y	-0.492 natural log
L31H	-0.157 natural log
A57N	0.0103 natural log
E54H	-0.0514 natural log
R30W	0.00516 natural log
K34A	-0.0668 natural log
R30N	-0.0137 natural log
K39Q	-0.155 natural log
E54Y	-0.184 natural log
M51E	0.0356 natural log

Study 4
Target: Histone acetyltransferase KAT6A, both winged helices, GST fusion (KAT6A, Homo sapiens, UniProt Q92794, residues 1-181)
Method: protein binding microarray
Molecule type: double-stranded DNA, one strand shown
Medium: in vitro
Concentration: not given
Setting: 8-mer, flanks averaged, mean of 2 arrays, mostly near background
Relative to: not given
Direction: higher = stronger binding
Construct (chain): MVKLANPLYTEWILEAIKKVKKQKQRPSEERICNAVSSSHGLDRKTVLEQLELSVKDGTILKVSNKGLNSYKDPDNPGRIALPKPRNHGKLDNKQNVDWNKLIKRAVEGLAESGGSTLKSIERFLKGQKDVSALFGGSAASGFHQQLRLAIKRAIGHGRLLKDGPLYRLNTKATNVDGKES
Sequence	E-score
CCAAAGTA	-0.133
AGGAACCC	-0.157
CTCGTCTA	-0.171
CTACGTGC	-0.0547
CTATTATC	-0.0495
GCAGGAAA	-0.186
ACGGTAAA	0.18
CCAGCCAA	-0.185
ATCGAGTA	-0.184
CCTGGATC	-0.201
AGTTCAGA	-0.094
CGTTAGGA	0.0905
AGTCAGTC	-0.0366
ACGGAGGC	0.183
ACACCGCA	0.0645
AAATAGTG	-0.0628
CACCATTA	-0.041
AGACCTCG	0.0648
CCGTGGCG	0.257
